Measured values pooled from the literature.
Lines come from different studies, so protocols differ. Numbers after ± are the reported error.

CN(C)CCOc1ccc(/C(=C(/CCCl)c2ccccc2)c2ccccc2)cc1 — EC90 (Huh-7; pseudovirus entry; MERS-CoV spike pseudovirus): > 20 µM
CN(C)c1ccc(C(=C2C=CC(=[N+](C)C)C=C2)c2ccccc2)cc1 — IC50 (HeLa; Ebola VLP entry): 3.43 µM
Nc1ncnc2c1cnn2-c1ccccc1 — NMDA Ca2+ influx potentiation (mouse cerebrocortical neurons; 10 µM, together with: NMDA 3 µM and PbTx-2 30 nM): no effect
CN1CCCC(n2nc(Cc3ccc(Cl)cc3)c3ccccc3c2=O)CC1 (stereo not drawn) — EC90 (Huh-7; pseudovirus entry; MERS-CoV spike pseudovirus): > 20 µM
CNCCCC1c2ccccc2C=Cc2ccccc21 — IC50 (HeLa; Ebola VLP entry): 12.2 µM
CC(C)C[C@H](NC(=O)[C@H](Cc1ccccc1)NC(=O)[C@@H]1CCCN1C(=O)[C@H](CC(=O)O)NC(=O)[C@H](CC(N)=O)NC(=O)[C@H](CS)NC(=O)[C@H](Cc1ccccc1)NC(=O)[C@H](CCC(N)=O)NC(=O)[C@H](Cc1ccccc1)NC(=O)[C@H](CCC(=O)O)NC(=O)[C@@H](N)CS)C(=O)NCC(=O)N[C@H](C(=O)N[C@@H](Cc1ccc(O)cc1)C(=O)N[C@@H](Cc1ccc(O)cc1)C(=O)O)C(C)C — responding donors (human PBMC CD4 T cells; AIM): 27%
CNC(=O)[C@@H](NC(=O)[C@H](CC(C)C)[C@H](O)C(=O)NO)C(C)(C)C — viability difference (C2C12; 1 µM, together with: PB venom; relative to: venom alone): 9.35%
OC(COc1cccc(OCC(O)CN2CCCCC2)c1)CN1CCCCC1 (stereo not drawn) — EC50 (HEK293T; pseudovirus entry; SARS-CoV spike pseudotyped HIV-1; 72 h): 3 µM
diphtheria toxin A chain — EC50 (HeLa; cell proliferation, CellTiter-Glo; 72 h): 4 µM
CCc1c(C(=O)C(N)=O)c2c(OCC(=O)O)cccc2n1Cc1ccccc1 — viability difference (C2C12; 1 µM, together with: TN venom; relative to: venom alone): 7.54%
CN1CCCN(C(c2ccccc2)c2ccc(Cl)cc2)CC1 (stereo not drawn) — IC50 (HeLa; Ebola VLP entry): 10.9 µM
OCCN1CCN(CCC=C2c3ccccc3Sc3ccc(C(F)(F)F)cc32)CC1 — EC90 (Huh-7; pseudovirus entry; MERS-CoV spike pseudovirus): 6.8 ± 0.4 µM
Cc1ccc([N+](=O)[O-])[c]2c1[O][Hg]2 — IC50 (HeLa; Ebola VLP entry): 4.85 µM
COc1ccc(-c2ccc3c(N)c(C(=O)Nc4cc(F)ccc4F)sc3n2)cc1 — EC50 (ScN2a-cl3; PrPSc level): > 10 µM
CC(CN(C)C)CN1c2ccccc2Sc2ccccc21 (stereo not drawn) — EC50 (Huh-7; pseudovirus entry; MERS-CoV spike pseudovirus): 0.73 ± 0.13 µM
O=C1NCN(c2ccccc2)C12CCN(CCCOc1ccc(F)cc1)CC2 — IC50 (HeLa; Ebola VLP entry): 19.3 µM
COc1cc(Nc2c(C#N)cnc3cc(OCCCN4CCN(C)CC4)c(OC)cc23)c(Cl)cc1Cl — EC50 (Huh-7; pseudovirus entry; MERS-CoV spike pseudovirus): 1.25 ± 0.01 µM
Fc1ccc(C(OCCN2CCN(CCCc3ccccc3)CC2)c2ccc(F)cc2)cc1 — maximal inhibition (HeLa; Ebola VLP entry): 100%
SATSFPPSYESVARG — TTX-resistant current density (human DRG neurons; peptide; 10 µM, 24 h, +20 mV, together with: 250 nM TTX): decreased
COc1ccc(-c2ccc3c(N)c(C(=O)Nc4ccc(OC)c(OC)c4)sc3n2)cc1 — EC50 (ScN2a-cl3; PrPSc level): > 10 µM
C[C@@H]1CN(CCCn2c3ccccc3c3ccccc32)C[C@H](C)N1.Cl.Cl — maximal inhibition (HeLa; Ebola VLP entry): 98%

Some of these lines once more:
OCCN1CCN(CCC=C2c3ccccc3Sc3ccc(C(F)(F)F)cc32)CC1 — EC90 (Huh-7; pseudovirus entry; MERS-CoV spike pseudovirus): 6.8 ± 0.4 µM
Cc1ccc([N+](=O)[O-])[c]2c1[O][Hg]2 — IC50 (HeLa; Ebola VLP entry): 4.85 µM
COc1ccc(-c2ccc3c(N)c(C(=O)Nc4cc(F)ccc4F)sc3n2)cc1 — EC50 (ScN2a-cl3; PrPSc level): > 10 µM
